Results gathered from unrelated publications.
Lines come from different studies, so protocols differ.
Matrix: plasma

The half-life of `Nc1cc(F)ccc1NC(=O)c1ccc(CNC(=O)/C=C/c2cccnc2)cc1` is reported as 1160 min (human; oral, 40 mg, patients).
The half-life of `CC(=O)O[C@@]12CO[C@@H]1C[C@H](O)[C@@]1(C)C(=O)[C@H](O)C3=C(C)[C@@H](OC(=O)[C@H](O)[C@@H](NC(=O)OC(C)(C)C)c4ccccc4)C[C@@](O)([C@@H](OC(=O)c4ccccc4)[C@H]21)C3(C)C` is reported as 893 min (human; intravenous, 75 mg/m², patients).
`O=C(c1nc2n(n1)[C@H](c1ccccc1)C[C@@H]2F)C1CC1` gave a half-life of 774 min (human; oral, 150 mg, single dose, fasted, healthy volunteers).
The half-life of `C=CC(=O)Nc1cc(Nc2ncc(C(=O)OC(C)C)c(-c3cn(C)c4ccccc34)n2)c(OC)cc1N(C)CCN(C)C` is reported as 1100 min (human; oral, 120 mg, single dose, fasted, healthy volunteers).
For `C[C@@H]1CCC[C@H](n2cnc(-c3cc(Cl)ccc3-n3cc(Cl)nn3)cc2=O)c2cc(ccn2)-c2c(cnn2C(F)F)NC1=O`, the half-life was 828 min (human; oral, 300 mg, single dose, fasted, healthy volunteers).
With `C#C[C@]1(CO)O[C@@H](n2cnc3c(N)nc(F)nc32)C[C@@H]1O` the half-life was 3820 min (human; oral, 30 mg, single dose, fed).
For `CC(C)(/C=C(\C#N)C(=O)N1CCC[C@@H](n2nc(-c3ccc(Oc4ccccc4)cc3F)c3c(N)ncnc32)C1)N1CCN(C2COC2)CC1`, the half-life was 192 min (male human; oral, 400 mg, single dose, tablet).
The half-life of `O=C(O)COC[C@H]1CC[C@H](COC(=O)N(c2ccccc2)c2ccc(Cl)cc2)CC1` is reported as 1240 min (human; oral, 50 µg, single dose, healthy volunteers).
`CC(=O)N[C@H]1CC[C@H](NC(=O)CN2CCN(c3nncc(-c4ccc(C)cc4)n3)CC2)CC1` gave a half-life of 744 min (female human; oral, 100 mg, single dose, fasted, healthy volunteers).
`CNCc1ccc(-c2[nH]c3cc(F)cc4c3c2CCNC4=O)cc1` gave a half-life of 1040 min (human; oral, 300 mg, single dose, fed).
`Cn1cc(-c2ccc(S(=O)(=O)[C@@H]3C[C@@H](C(=O)NC4(C#N)CC4)N(C(=O)C4(C(F)(F)F)CC4)C3)c(C(F)(F)F)c2)cn1` has a half-life of roughly 480 min (human; oral, 10 mg, single dose, fasted, healthy volunteers).
`Nc1ccc(-c2nc([C@H]3CCc4cc(-c5cc(Cl)ccc5-n5cnnn5)cc(=O)n43)c(F)[nH]2)c(F)n1` gave a half-life of 1120 min (human; oral, 20 mg, single dose, fasted).
The half-life of `COc1cccc(-c2ccc(NC(=O)C3=C(C(=O)O)CCC3)c(F)c2)c1` is reported as 1820 min (male human; oral, 30 mg, multiple doses, once daily).
For `CCCOc1ccc([C@H]2CNC(=O)N2c2ccc3[nH]cnc3c2)cc1`, the half-life was 147 min (human; oral, 1200 mg, single dose, fed).
`CS(=O)(=O)n1cc2c(n1)CN([C@H]1CO[C@H](c3cc(F)ccc3F)[C@@H](N)C1)C2` has a half-life of 2330 min (male human; oral, 25 mg, single dose, fasted, healthy volunteers).
`CNc1nc(Nc2ccc(-n3cnc(C)n3)c(OC)c2)nc2c1CC[C@H]2c1ccc(F)cc1` gave a half-life of 1140 min (human; oral, 30 mg, single dose, healthy volunteers).

A few entries again:
`Nc1ccc(-c2nc([C@H]3CCc4cc(-c5cc(Cl)ccc5-n5cnnn5)cc(=O)n43)c(F)[nH]2)c(F)n1` gave a half-life of 1120 min (human; oral, 20 mg, single dose, fasted).
The half-life of `COc1cccc(-c2ccc(NC(=O)C3=C(C(=O)O)CCC3)c(F)c2)c1` is reported as 1820 min (male human; oral, 30 mg, multiple doses, once daily).
